Measurements of several laboratories.
Numbered parts are unrelated; each lists some results of a single study. Changes are numbered by the printed parent chain.

Study 1 — method: RNA Bind-n-Seq; molecule type: RNA; matrix: in vitro; concentration: 365 nM; relative to: no-protein control; reading: higher = stronger binding; endpoint: RBNS enrichment (R)
Target: RNA binding protein fox-1 homolog 2, RRM domain, GST-SBP tag (RBFOX2, Homo sapiens, UniProt O43251-10, residues 100-194)
Notes: natural RNA segment, single round, ends assumed
Shared flanks, not repeated: GGGAGUUCUACAGUCCGACGAUC … UGGAAUUCUCGGGUGCCAA
Construct (chain): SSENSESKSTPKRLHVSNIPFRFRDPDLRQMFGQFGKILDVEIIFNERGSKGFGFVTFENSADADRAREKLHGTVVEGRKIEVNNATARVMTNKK
Strand = CAAACAAAUAAAUUGUAAUCAAAAGAGCUCUAAAUUUGUAAUUUCUUUCUCCUUUCAAAAAAUGUCUACUUUGUUUUGGUCCUAGGCAUUAGGUAAUAUAACUGAUAAUA; result = 0.396
Strand = ACUGUAUCUUAUUUGAUGAUAUUUAUUUUCUCUGCCAAGCUGUAUAGUAAAAGGAAAAUAAGUCACAUCUGGUCAUUGGCAUUUGUAUCGUCAUUCUGUAAAGACAAAAG; result = 0.279
Strand = CUAUAUUGUAUAAUAUUUAAAGUUAUUUUUAAUUUUCUCAAACAAUAUGAGAAUAUCUAUCUGGCAUUAUCUAUCUGCCAAUCUCACUGUAAUAAAUUGAUUAUUUUGCC; result = 1.7
Strand = UGGCGGAGUGAAGCUCAGCUCGGUGGUCGCUCAGAGCAGCCAGUGGUCCCCUCUGCUCUGUUCCCUCCUCCUGUGGGAAGGGACUCGGAAGCUUGUCUGCCCCUCACCAG; result = 0.264
Strand = ACUGGAAGGAGAGGUUCGCUCCCUCCUUAAGGACAUAAGUGAGAAAGUUGCGGUUUACAGCACCUGCUUAUAACAGGAAGGGGCUGUAGAGGGGCUCGGUGACCAAGGUA; result = 0.661
Strand = CUUUUUUUACAGAGGUUAUGGGAACUAAGGUCUGAUCCCUGGAAACUGAUCUUGUGUCACUUCCAAAGAAUCAUGGGCUUUUUCGAAUAAAAAAAUUUACACUUUUCAGG; result = 0.408
Strand = UUGUUUUAGUCUUAUGGCAUGAUGAUAGCAUAUGUGUUCAGGUUUAUAGCUGUUGUGUUUAAAAAUUGAAAAAAGUGGAAAACAUCUUUGUACAUUUAAGUCUGUAUUAU; result = 2.47
Strand = AUGCUUGGAGAAAGAAGAAACCCUAUUCUUGUUUUAGUAUCUUGAUCUCAUUAGUUUAUAGGCGUUGAUAAUAUCCCUAUGCAUAGAUUCUUUGUGUAUUGAUUACUAUA; result = 0.536
Strand = AGCUAGCUACAUUGCAGCAGAGUUGUUGUGUAUGUGUGCAUUUAAAGAAGAUAAUGCUUAUUCUGUUAAUGCACACUUUUAAGUUUUGAUGAUUUUUUACAGUGUUUUAG; result = 0.363
Strand = CUGCUAUUAUUCCUUGCUGUUUAUAGUGCUUUUGUGUAGUAAAUGCUCACUCCCCAAGCUUUAUGGAGCUUCCAGCAACAGCCAUGAACUUGAGGUUCCUUGAAUUUGCG; result = 0.668
Strand = UUAAUGCAAAUCCAUUACAUGGUGCUAUUAUAGGCUGACAAAAUGAUUUACACAAAUGUGACAACUUGGGCUCAAUUCACUCUGCUUUCCAACAGUGUAAAUGCAUAGCA; result = 0.363
Strand = AAAUUAGCCUAGUGAAAUCUCUGAUUGUUCAUUACAAAGGCAGCGUUCACAGCAUUGCUUCUUCUUCUUCCUUCUCCACCUCCUUGUGGGAACGGGAUUAAGUUUAAAAC; result = 0.268

Study 2 — method: protein-binding microarray; molecule type: double-stranded DNA, one strand shown; matrix: in vitro; concentration: 2200 nM top; notes: 60-bp whole probe; with: salmon DNA 0.4 mg/ml; relative to: random background probes; reading: higher = stronger binding; endpoint: fitted relative affinity; shared flanks, not repeated: GCCTAGCAC … GTCTTGATTCGCTTGACGCTGCTG
Target: Interferon regulatory factor 7, full length, phosphomimetic (IRF7, Homo sapiens, UniProt Q92985, residues 1-503, S471D/S472D/S475D/S476D/S477D/S483D/S484D/S487D)
UniProt Q92985, sequence (whole entry, unmodified, looked up): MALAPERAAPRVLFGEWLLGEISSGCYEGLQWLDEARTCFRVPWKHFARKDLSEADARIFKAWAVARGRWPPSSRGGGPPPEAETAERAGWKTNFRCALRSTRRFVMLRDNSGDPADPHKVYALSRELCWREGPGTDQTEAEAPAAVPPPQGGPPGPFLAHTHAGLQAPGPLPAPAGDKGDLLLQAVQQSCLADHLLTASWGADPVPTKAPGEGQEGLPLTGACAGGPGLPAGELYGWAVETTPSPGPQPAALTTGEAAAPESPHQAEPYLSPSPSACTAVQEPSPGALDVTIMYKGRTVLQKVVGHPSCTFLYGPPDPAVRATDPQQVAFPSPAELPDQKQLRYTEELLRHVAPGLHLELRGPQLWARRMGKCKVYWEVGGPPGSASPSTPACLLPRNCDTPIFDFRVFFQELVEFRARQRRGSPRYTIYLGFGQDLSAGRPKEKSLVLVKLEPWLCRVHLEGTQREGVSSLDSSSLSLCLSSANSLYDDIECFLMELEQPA
Strand = TTAGAAATCGGGACTGGATTAGTGCTA; result = -0.674 z-score
Strand = TTTGAGCTCTGTCTGGGATGGTGCTAG; result = -0.205 z-score
Strand = TTAGGTTGCCTACTGCTTTAGTGCTAG; result = 0.383 z-score
Strand = TTAGGTATCGACTATCGGTAAGTGCTA; result = 0.087 z-score
Strand = TTAGATTTCGGCTTTCGATTAGTGCTA; result = 4.98 z-score
Strand = TTAGATATCAGGTATCGATTAGTGCTA; result = -0.0194 z-score
Strand = TCAAGTCTCAAAATTAGACTGTGCTAG; result = -0.585 z-score
Strand = GACGGTTTTGGACTGGGGACGTGCTAG; result = 0.593 z-score
Strand = GGTTTTCTGGTTCCCATTCCGTGCTAG; result = 6.89 z-score
Strand = GACGGTCTCCTACTGCTCACGTGCTAG; result = 0.839 z-score
Strand = TCATAAAACAACTTTCAAACTGTGCTA; result = -0.634 z-score
Strand = GACGGTTTCGACATTCGGGACGTGCTA; result = 4.39 z-score
Strand = GACGTTATCGGTTTCGGGACGTGCTAG; result = 4.56 z-score
Strand = GACGGTATCCTTATCCTGGCGTGCTAG; result = 0.692 z-score
Strand = GGCGAACTGAGACTGGAGACGTGCTAG; result = -0.571 z-score
Strand = GGCGGTTCCCTTTTCCTGACGTGCTAG; result = 1.78 z-score
Strand = GACGATTTCAGTCGCGAGACGTGCTAG; result = 0.662 z-score
Strand = TTAGGTTTCCTTCTCCTTTCGTGCTAG; result = 3.12 z-score

Study 3 — target: CCNB2, cyclin fold, Cln2 fusion (human); method: yeast growth competition, sequencing; matrix: yeast; notes: weak parent motif; relative to: not given; reading: higher = stronger binding; endpoint: normalised enrichment score
Parent: SCAPER docking peptide (human); SNARRSLNFGGST
Change = F9N; result = -0.0601
Change = N2M; result = -0.253
Change = S6Q; result = 0.297
Change = N2A; result = 0.298
Change = S1F; result = 0.852
Change = R5C; result = -0.0475
Change = R4D; result = -0.112
Change = N8W; result = 0.181
Change = T13E; result = -0.0886
Change = S1T; result = 0.357
Change = R5N; result = -0.515
Change = S12T; result = 0.0649
Change = N8V; result = 0.0866
Change = G11Y; result = 0.12
Change = F9S; result = 0.192
Change = G10W; result = 0.625
Change = G11K; result = 0.734
Change = S12Q; result = -0.0153
Change = S6Y; result = 0.277
Change = N2S; result = 0.0701
Change = S1P; result = 0.106
Change = L7S; result = 0.251
Change = R5Q; result = 0.153
Change = S1Q; result = -0.131
Change = T13F; result = 0.421

Study 4 — method: protein binding microarray; molecule type: double-stranded DNA, one strand shown; matrix: in vitro; concentration: not given; relative to: not given; reading: higher = stronger binding; endpoint: E-score
Target: Histone acetyltransferase KAT6A, both winged helices, GST fusion (KAT6A, Homo sapiens, UniProt Q92794, residues 1-181)
Notes: 8-mer, flanks averaged, mean of 2 arrays, mostly near background
Target sequence (chain): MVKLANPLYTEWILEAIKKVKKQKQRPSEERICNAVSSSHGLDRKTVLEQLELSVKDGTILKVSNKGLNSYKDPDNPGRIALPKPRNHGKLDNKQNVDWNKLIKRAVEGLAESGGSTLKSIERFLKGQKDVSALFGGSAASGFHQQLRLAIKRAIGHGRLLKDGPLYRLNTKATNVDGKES
Strand = AGCACCAG; result = -0.128
Strand = ACGATAAT; result = -0.066
Strand = CTCGAAAG; result = -0.0268
Strand = CAAATACG; result = -0.00872
Strand = GTCACCAC; result = 0.00245
Strand = ACTCACGC; result = 0.167
Strand = CGATTAAC; result = 0.0971
Strand = GTTTTCGA; result = -0.0113
Strand = AGACGCTG; result = -0.0188
Strand = TTGAGCAA; result = -0.152
Strand = CTTTCGCA; result = -0.0593
Strand = GCCCAAGC; result = 0.079
Strand = TTACTGAA; result = -0.0633
Strand = GCCACAGC; result = -0.00541
Strand = GACTGACC; result = 0.0208
Strand = AGTTTAAA; result = -0.0814
Strand = AGGTAGAG; result = -0.171
Strand = ATATTGGG; result = -0.0448
Strand = ATAATGAT; result = -0.0524
Strand = CCGTTGCG; result = 0.286
Strand = CAAAACCC; result = -0.0403
Strand = GTTGATCA; result = 0.0683
Strand = TAAACCCA; result = -0.291
Strand = CGTAGCAG; result = 0.0457
Strand = CGGGTACG; result = 0.232

Study 5 — method: competition protein-binding microarray; molecule type: double-stranded DNA, one strand shown; matrix: in vitro; concentration: 2 µM; with: Cbf1 competitor, 0.05 µM; reading: higher = stronger binding; endpoint: fluorescence intensity; shared flanks, not repeated: … GTCTTGATTCGCTTGACGCTGCTG
Target: Phosphate system positive regulatory protein PHO4, full length, GST-tagged (PHO4, Saccharomyces cerevisiae, UniProt P07270, residues 1-312)
Notes: whole 60-bp probe, lowest competitor level
Construct (chain): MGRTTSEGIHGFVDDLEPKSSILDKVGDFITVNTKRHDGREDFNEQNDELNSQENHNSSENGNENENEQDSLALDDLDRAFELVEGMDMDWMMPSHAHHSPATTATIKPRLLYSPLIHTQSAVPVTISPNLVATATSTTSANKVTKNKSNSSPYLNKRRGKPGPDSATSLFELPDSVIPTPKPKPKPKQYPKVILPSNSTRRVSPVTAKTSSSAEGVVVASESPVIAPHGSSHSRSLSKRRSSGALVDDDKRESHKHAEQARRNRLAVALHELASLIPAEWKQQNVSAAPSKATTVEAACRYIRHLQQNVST
Strand = AAAAGATATTATCCTCACGTGGAGTTATTGTAAAAA; result = 13000 a.u.
Strand = TTCACTTCGGGTTTTGCCGTGCCGAACTTTTCAGAT; result = 4260 a.u.
Strand = GACATATTACATTTCCTCGTGCTTTTCGAAGTATTT; result = 13400 a.u.
Strand = ATAAGTAAACTCTCACACATGCTAACTTCTGTTGGG; result = 9310 a.u.
Strand = TGCGCAACAACTTGTCACGTGTTTTTATGTCTAGAA; result = 16200 a.u.
Strand = TGTGTTGTATTCGGCCACGTGGGACCTCGCACATTG; result = 19900 a.u.
Strand = AGCCAACGTTACGACCACGATGCCTATGAACACCAT; result = 10500 a.u.
Strand = TCTCTCCATTCGGTTGATGTGATGCTTTGCTGTAAA; result = 4360 a.u.
Strand = GGCGAATGGAAAAATCACCTGGCAAGTCATTTCATC; result = 2910 a.u.
Strand = GGAGCGTATTGTAACCAGATTTCCTTGGGCCAGAAG; result = 3000 a.u.
Strand = TATCTCGCTCACCATCACGGCCGCCGCCATTCCCGA; result = 3920 a.u.
Strand = TTCATTGATGAAATTCACATGTTAATGGGTAATGGT; result = 7350 a.u.
Strand = GACACTTTTACATACGGCGTGCGATGCTGGTATCCT; result = 9420 a.u.
Strand = CTTTCCCGATCTTGTAACGTGGGTGTAGCACATTTG; result = 10900 a.u.
Strand = CTTCTGTAAATTTGGCAAGTGGGTGGACGCGCCCCG; result = 4350 a.u.
Strand = CTTTCCCGATCTTGAGCAGTGGGTGTAGCACATTTG; result = 4880 a.u.
Strand = CTCAAGGGCGTACACCATGTGTTGGACATAAACCTC; result = 9050 a.u.
Strand = GGTTGTTTAACAATAAACGTGTAGAGTACAGGTAGA; result = 10800 a.u.
Strand = TAGGACCAATTTGGCAATGTGACTCGCGGAATATGG; result = 5790 a.u.
Strand = TATTGGTTTTGGAAACACGTTTCGAATCTTCAGTAT; result = 12300 a.u.
Strand = CATACCCAACCTTGAGCAGTGGGTGAAGATATTTGT; result = 4310 a.u.
Strand = CATACCCAACCTTGGTTTGTGGGTGAAGATATTTGT; result = 3740 a.u.
Strand = AGATCGACGGAAGAGAACGTGCAAACCTTTGGGCTG; result = 13200 a.u.
Strand = TGCTACGCGTAGTGCAGCGTGACGGCGGGCTAAAAA; result = 5150 a.u.
Strand = ACCCAGTTCACAAGCACCGTGAAGCTAGAGGTTTGA; result = 4260 a.u.
